Measured values from different studies.
Parts stem from different laboratories: compare values within a part only. “And” joins repeats or separate records; there may be more than shown.
Chain of UniProt P11802 (whole entry, looked up): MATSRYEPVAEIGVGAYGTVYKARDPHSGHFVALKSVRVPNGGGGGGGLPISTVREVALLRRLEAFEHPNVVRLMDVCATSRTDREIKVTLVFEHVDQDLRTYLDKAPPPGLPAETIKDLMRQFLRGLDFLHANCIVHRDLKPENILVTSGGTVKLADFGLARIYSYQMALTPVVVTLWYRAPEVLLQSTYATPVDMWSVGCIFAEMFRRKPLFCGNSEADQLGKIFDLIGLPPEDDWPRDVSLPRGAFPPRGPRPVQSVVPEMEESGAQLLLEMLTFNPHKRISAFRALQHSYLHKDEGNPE
Chain of UniProt P54762 (whole entry, looked up): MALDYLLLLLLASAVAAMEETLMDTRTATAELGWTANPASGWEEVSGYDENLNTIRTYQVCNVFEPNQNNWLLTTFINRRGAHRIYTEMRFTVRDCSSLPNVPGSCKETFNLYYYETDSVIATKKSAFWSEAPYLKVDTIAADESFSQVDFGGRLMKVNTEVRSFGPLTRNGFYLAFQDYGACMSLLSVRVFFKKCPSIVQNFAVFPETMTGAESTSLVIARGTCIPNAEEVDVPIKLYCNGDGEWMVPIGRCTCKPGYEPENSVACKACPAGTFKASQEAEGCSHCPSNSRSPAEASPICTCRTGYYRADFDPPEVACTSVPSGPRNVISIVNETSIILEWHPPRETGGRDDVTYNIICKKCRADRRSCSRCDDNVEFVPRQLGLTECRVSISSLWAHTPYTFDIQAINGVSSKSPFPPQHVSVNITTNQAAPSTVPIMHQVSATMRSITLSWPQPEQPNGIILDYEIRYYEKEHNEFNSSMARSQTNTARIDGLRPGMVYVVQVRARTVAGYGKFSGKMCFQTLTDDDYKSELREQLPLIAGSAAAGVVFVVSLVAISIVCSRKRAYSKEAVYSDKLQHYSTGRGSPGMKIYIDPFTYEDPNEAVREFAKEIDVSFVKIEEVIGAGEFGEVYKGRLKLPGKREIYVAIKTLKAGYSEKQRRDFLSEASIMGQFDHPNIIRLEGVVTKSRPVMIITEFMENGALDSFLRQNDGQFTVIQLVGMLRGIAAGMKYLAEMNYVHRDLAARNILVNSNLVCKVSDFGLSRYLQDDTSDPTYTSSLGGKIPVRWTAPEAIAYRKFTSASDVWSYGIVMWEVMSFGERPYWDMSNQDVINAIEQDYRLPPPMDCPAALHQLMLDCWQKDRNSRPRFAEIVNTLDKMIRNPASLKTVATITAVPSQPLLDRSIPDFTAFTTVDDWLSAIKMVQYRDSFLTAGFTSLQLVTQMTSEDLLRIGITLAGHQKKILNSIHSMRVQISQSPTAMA
Chain of UniProt Q8NE63 (whole entry, looked up): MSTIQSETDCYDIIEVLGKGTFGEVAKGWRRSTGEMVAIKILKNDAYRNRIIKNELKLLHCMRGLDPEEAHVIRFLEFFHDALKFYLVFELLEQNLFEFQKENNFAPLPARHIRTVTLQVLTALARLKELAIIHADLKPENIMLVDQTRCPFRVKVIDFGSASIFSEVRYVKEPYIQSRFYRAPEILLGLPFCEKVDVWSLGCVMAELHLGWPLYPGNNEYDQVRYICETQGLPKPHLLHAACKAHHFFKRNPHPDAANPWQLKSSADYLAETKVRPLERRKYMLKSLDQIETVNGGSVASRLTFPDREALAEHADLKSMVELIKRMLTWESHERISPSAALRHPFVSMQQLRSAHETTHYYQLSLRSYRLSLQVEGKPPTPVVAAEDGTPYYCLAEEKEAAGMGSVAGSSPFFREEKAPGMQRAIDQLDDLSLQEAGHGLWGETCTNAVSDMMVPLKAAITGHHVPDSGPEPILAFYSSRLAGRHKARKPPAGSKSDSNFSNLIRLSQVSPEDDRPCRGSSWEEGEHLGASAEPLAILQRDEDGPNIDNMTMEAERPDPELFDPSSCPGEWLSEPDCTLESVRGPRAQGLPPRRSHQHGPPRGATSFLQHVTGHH
Chain of UniProt P04049 (whole entry, looked up): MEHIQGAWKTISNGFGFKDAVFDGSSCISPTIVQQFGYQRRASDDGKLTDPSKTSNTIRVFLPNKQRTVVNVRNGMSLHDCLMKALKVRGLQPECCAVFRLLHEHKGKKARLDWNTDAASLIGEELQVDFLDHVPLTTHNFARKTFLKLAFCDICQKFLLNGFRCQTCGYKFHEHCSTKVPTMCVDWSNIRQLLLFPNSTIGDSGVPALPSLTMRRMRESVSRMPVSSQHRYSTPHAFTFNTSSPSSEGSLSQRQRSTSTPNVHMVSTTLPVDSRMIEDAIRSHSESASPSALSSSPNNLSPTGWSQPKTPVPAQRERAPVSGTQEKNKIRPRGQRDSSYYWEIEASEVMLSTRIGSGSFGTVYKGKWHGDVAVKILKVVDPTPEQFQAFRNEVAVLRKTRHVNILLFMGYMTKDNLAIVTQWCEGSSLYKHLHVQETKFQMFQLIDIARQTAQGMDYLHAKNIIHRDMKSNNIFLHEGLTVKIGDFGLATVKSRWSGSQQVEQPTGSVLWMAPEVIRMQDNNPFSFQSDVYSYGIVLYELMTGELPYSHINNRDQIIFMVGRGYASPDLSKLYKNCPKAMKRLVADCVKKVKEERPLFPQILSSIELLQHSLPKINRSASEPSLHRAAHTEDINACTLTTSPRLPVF
Chain of UniProt P51451 (whole entry, looked up): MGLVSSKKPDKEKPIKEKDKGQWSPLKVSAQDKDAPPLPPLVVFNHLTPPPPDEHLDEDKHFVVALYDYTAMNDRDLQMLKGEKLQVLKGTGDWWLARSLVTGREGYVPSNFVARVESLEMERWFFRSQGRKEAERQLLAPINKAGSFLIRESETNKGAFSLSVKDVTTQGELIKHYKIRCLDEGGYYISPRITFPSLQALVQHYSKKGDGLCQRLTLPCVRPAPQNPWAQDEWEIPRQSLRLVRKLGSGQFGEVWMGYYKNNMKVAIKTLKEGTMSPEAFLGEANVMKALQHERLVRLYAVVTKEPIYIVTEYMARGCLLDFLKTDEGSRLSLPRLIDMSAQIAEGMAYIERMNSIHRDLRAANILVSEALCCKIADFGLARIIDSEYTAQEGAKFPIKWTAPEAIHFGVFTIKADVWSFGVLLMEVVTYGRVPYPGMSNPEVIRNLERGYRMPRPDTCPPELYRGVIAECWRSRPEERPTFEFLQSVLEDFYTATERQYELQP
Chain of UniProt O75582 (whole entry, looked up): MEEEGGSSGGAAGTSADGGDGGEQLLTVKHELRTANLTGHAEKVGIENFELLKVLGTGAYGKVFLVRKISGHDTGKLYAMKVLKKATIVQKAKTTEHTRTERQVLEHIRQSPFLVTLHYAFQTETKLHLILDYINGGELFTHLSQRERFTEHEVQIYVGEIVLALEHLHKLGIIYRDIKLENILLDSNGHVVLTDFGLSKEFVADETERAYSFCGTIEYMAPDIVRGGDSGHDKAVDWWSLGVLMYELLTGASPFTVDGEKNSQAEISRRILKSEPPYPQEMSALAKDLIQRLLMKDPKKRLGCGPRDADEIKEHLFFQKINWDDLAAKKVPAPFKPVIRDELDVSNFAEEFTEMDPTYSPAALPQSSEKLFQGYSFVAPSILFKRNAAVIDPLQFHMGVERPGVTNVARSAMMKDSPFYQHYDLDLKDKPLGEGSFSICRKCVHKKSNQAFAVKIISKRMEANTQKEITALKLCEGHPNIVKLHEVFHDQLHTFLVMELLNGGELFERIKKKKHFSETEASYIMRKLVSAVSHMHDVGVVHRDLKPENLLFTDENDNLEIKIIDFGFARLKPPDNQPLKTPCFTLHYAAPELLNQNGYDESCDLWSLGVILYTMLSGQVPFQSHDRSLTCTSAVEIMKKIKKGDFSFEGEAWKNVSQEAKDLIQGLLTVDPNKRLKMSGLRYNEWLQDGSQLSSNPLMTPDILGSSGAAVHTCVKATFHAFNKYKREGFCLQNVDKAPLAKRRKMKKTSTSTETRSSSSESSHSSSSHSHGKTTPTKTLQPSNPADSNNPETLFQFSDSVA
Chain of UniProt Q5T6X5 (whole entry, looked up): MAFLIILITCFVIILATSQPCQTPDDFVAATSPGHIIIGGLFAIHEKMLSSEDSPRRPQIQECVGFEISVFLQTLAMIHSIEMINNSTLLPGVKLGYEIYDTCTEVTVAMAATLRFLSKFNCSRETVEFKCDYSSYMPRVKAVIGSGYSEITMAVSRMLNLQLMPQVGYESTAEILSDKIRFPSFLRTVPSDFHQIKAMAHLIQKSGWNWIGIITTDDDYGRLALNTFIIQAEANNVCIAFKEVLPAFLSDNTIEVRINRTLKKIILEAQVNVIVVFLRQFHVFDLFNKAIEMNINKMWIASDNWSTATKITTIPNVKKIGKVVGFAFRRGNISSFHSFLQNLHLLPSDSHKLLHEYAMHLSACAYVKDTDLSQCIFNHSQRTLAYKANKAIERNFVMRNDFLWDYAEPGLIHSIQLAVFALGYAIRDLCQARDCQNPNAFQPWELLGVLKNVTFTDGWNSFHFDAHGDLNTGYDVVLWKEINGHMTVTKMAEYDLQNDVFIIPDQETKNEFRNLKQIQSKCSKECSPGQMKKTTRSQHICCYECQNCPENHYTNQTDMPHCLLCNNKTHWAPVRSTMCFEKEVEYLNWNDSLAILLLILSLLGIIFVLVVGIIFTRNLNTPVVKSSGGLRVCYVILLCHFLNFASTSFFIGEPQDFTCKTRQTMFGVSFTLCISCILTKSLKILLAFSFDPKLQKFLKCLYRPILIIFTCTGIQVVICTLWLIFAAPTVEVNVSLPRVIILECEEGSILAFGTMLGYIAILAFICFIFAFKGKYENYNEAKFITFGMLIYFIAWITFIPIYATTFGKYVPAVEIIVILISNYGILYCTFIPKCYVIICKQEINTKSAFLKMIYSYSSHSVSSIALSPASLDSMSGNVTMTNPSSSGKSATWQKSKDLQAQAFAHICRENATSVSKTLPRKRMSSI

Block 1 — tested at: 0.1 µM
Compound: Cc1cc(C)c(-n2ccn3nc(-c4cccnc4)cc23)cc1NC(=O)c1cc(C#N)cc(S(F)(F)(F)(F)F)c1
target	test	remaining binding
RAF proto-oncogene serine/threonine-protein kinase (RAF1, Homo sapiens, UniProt P04049)	cell-free assay, competition with immobilised ligand	83.8%
Mitotic checkpoint serine/threonine-protein kinase BUB1 (BUB1, Homo sapiens, UniProt O43683)	cell-free assay, competition with immobilised ligand	99.8%
Serine/threonine-protein kinase MRCK alpha (CDC42BPA, Homo sapiens, UniProt Q5VT25)	cell-free assay, competition with immobilised ligand	100%
Mitogen-activated protein kinase 15 (MAPK15, Homo sapiens, UniProt Q8TD08)	cell-free assay, competition with immobilised ligand	94.1%
Serine/threonine-protein kinase ICK (CILK1, Homo sapiens, UniProt Q9UPZ9)	binding, competition with immobilised ligand	74.1%
Serine/threonine-protein kinase WNK2 (WNK2, Homo sapiens, UniProt Q9Y3S1)	cell-free assay, competition with immobilised ligand	100%
Myosin light chain kinase family member 4 (MYLK4, Homo sapiens, UniProt Q86YV6)	cell-free assay, competition with immobilised ligand	100%
AP2-associated protein kinase 1 (AAK1, Homo sapiens, UniProt Q2M2I8)	binding	95.9%
Transient receptor potential cation channel subfamily M member 6 (TRPM6, Homo sapiens, UniProt Q9BX84)	cell-free assay, competition with immobilised ligand	80.2%
MAP/microtubule affinity-regulating kinase 4 (MARK4, Homo sapiens, UniProt Q96L34)	cell-free assay, competition with immobilised ligand	92.4%
Mast/stem cell growth factor receptor Kit (KIT, Homo sapiens, UniProt P10721, V559D)	cell-free assay, competition with immobilised ligand	45.6%
Receptor-interacting serine/threonine-protein kinase 2 (RIPK2, Homo sapiens, UniProt O43353)	cell-free assay, competition with immobilised ligand	84.5%
Cyclin-dependent kinase 11A (CDK11A, Homo sapiens, UniProt Q9UQ88)	binding, competition with immobilised ligand	89.9%
Serine/threonine-protein kinase 33 (STK33, Homo sapiens, UniProt Q9BYT3)	cell-free assay, competition with immobilised ligand	100%
Inhibitor of nuclear factor kappa-B kinase subunit alpha (CHUK, Homo sapiens, UniProt O15111)	cell-free assay, competition with immobilised ligand	100%
Ephrin type-B receptor 1 (EPHB1, Homo sapiens, UniProt P54762)	cell-free assay, competition with immobilised ligand	100%
Wee1-like protein kinase 2 (WEE2, Homo sapiens, UniProt P0C1S8)	cell-free assay, competition with immobilised ligand	77.4%
Cyclin-dependent kinase 4, with cyclin D1 (CDK4, Homo sapiens, UniProt P11802)	cell-free assay, competition with immobilised ligand	89.4%
cGMP-dependent protein kinase 2 (PRKG2, Homo sapiens, UniProt Q13237)	cell-free assay, competition with immobilised ligand	82.7%
Serine/threonine-protein kinase PAK 2 (PAK2, Homo sapiens, UniProt Q13177)	cell-free assay, competition with immobilised ligand	89.8%
Serine/threonine-protein kinase LATS1 (LATS1, Homo sapiens, UniProt O95835)	cell-free assay, competition with immobilised ligand	83.9%
Ephrin type-A receptor 3 (EPHA3, Homo sapiens, UniProt P29320)	cell-free assay, competition with immobilised ligand	89.8%
Vascular endothelial growth factor receptor 1 (FLT1, Homo sapiens, UniProt P17948)	cell-free assay, competition with immobilised ligand	91.5%
Casein kinase I isoform gamma-2 (CSNK1G2, Homo sapiens, UniProt P78368)	cell-free assay, competition with immobilised ligand	77.6%

Block 2 — SMILES: CC(C)CN(C)c1nc(N)c(C(=O)N=C(N)N)nc1Cl; effect on: β-arrestin recruitment; action: agonist; method: PRESTO-Tango; tested at: 10 µM; baseline: untreated
target	fold over basal
Trace amine-associated receptor 5 (TAAR5, Homo sapiens, UniProt O14804)	1.55 fold
D(3) dopamine receptor (DRD3, Homo sapiens, UniProt P35462)	1.2
Thromboxane A2 receptor (TBXA2R, Homo sapiens, UniProt P21731)	0.73 fold
Vasopressin V1b receptor (AVPR1B, Homo sapiens, UniProt P47901)	0.49
Sphingosine 1-phosphate receptor 3 (S1PR3, Homo sapiens, UniProt Q99500)	0.62
Vasopressin V2 receptor (AVPR2, Homo sapiens, UniProt P30518)	0.8
Muscarinic acetylcholine receptor M3 (CHRM3, Homo sapiens, UniProt P20309)	0.6
Mas-related G-protein coupled receptor member X2 (MRGPRX2, Homo sapiens, UniProt Q96LB1)	0.57
G-protein coupled receptor family C group 6 member A (GPRC6A, Homo sapiens, UniProt Q5T6X5)	0.31 fold
Alpha-2B adrenergic receptor (ADRA2B, Homo sapiens, UniProt P18089)	1.04
Kappa-type opioid receptor (OPRK1, Homo sapiens, UniProt P41145)	1.48 fold
Metabotropic glutamate receptor 6 (Homo sapiens, UniProt O15303)	0.79 fold

Block 3 — effect on: enzyme activity; action: inhibitor; tested at: 0.5 µM; baseline: control
Compound: CC(C)[C@H](CO)Nc1nc(Nc2cccc(Cl)c2)c2ncn(C(C)C)c2n1
target	remaining activity [%]
Phosphorylase b kinase gamma catalytic chain, skeletal muscle/heart isoform (PHKG1, Homo sapiens, UniProt Q16816)	89.9
Tyrosine-protein kinase receptor UFO (AXL, Homo sapiens, UniProt P30530)	94.7
Homeodomain-interacting protein kinase 2 (HIPK2, Homo sapiens, UniProt Q9H2X6)	86.3
Serine/threonine-protein kinase 16 (STK16, Homo sapiens, UniProt O75716)	102
Dual specificity tyrosine-phosphorylation-regulated kinase 3 (DYRK3, Homo sapiens, UniProt O43781)	105
Ribosomal protein S6 kinase alpha-6 (RPS6KA6, Homo sapiens, UniProt Q9UK32)	96.8
3-phosphoinositide-dependent protein kinase 1 (PDPK1, Homo sapiens, UniProt O15530)	91.6
Cyclin-dependent kinase 4, with cyclin D3 (CDK4, Homo sapiens, UniProt P11802)	88.3
Tyrosine-protein kinase Blk (BLK, Homo sapiens, UniProt P51451)	68.8
Serine/threonine-protein kinase WNK3 (WNK3, Homo sapiens, UniProt Q9BYP7)	89.1
Ephrin type-A receptor 4 (EPHA4, Homo sapiens, UniProt P54764)	102
Cyclin-dependent kinase 6, with cyclin D3 (CDK6, Homo sapiens, UniProt Q00534)	71
Ribosomal protein S6 kinase alpha-5 (RPS6KA5, Homo sapiens, UniProt O75582)	100
Tyrosine-protein kinase ABL1 (ABL1, Homo sapiens, UniProt P00519)	75.6
Calcium/calmodulin-dependent protein kinase type II subunit beta (CAMK2B, Homo sapiens, UniProt Q13554)	94.3
Homeodomain-interacting protein kinase 4 (HIPK4, Homo sapiens, UniProt Q8NE63)	88.7
Testis-specific serine/threonine-protein kinase 2 (TSSK2, Homo sapiens, UniProt Q96PF2)	97.5
Ephrin type-B receptor 4 (EPHB4, Homo sapiens, UniProt P54760)	71.7
Serine/threonine-protein kinase 17A (STK17A, Homo sapiens, UniProt Q9UEE5)	95
Tyrosine-protein kinase Srms (SRMS, Homo sapiens, UniProt Q9H3Y6)	104
Ephrin type-B receptor 1 (EPHB1, Homo sapiens, UniProt P54762)	83.5
MAP kinase-activated protein kinase 3 (MAPKAPK3, Homo sapiens, UniProt Q16644)	85.4
Mitogen-activated protein kinase kinase kinase kinase 4 (MAP4K4, Homo sapiens, UniProt O95819)	84.9
cAMP-dependent protein kinase catalytic subunit gamma (PRKACG, Homo sapiens, UniProt P22612)	113

Block 4 — cell line: mouse MPNST tumor cells; method: high-content immunofluorescence imaging; measured: nuclear SOX9; tested at: 10 µM; time: 12 h; setting: mean of 2 replicates; baseline: DMSO control; direction: higher = more nuclear SOX9
Structure (SMILES)	nuclear SOX9 intensity
CCCNC(=O)NS(=O)(=O)c1ccc(Cl)cc1	94.6 % of DMSO
CCCCCN(CCCCC)C(=O)C(CCC(=O)O)NC(=O)c1ccc(Cl)c(Cl)c1 (stereo not drawn)	99.8 % of DMSO
Cc1cccc2c1CC[C@H](CN1CCC(c3c(Cl)cccc3Cl)CC1)C[C@@H]2O	182 % of DMSO
CN(CCOc1ccc(CC2SC(=O)NC2=O)cc1)c1ccccn1 (stereo not drawn)	103 % of DMSO and 95.1 % of DMSO and 96.2 % of DMSO
CN(C)CCn1nnnc1SCC1=C(C(=O)O)N2C(=O)[C@@H](NC(=O)Cc3csc(N)n3)[C@H]2SC1	100 % of DMSO
C/C=C1\C(=O)C[C@H]2[C@@H]3CCC4=CC(=O)CC[C@]4(C)[C@H]3CC[C@]12C	72.4 % of DMSO
O=C(CCCCCCC(=O)NO)NO	120 % of DMSO
CC(=O)N(CC(C)C(=O)O)c1c(I)cc(I)c(N)c1I (stereo not drawn)	96.5 % of DMSO
COc1ccc(CNc2nc(N(CCO)CCO)nc3c2ncn3C(C)C)cc1	84.3 % of DMSO
O=C(O)CCNc1cc(N2CCc3ccccc3CC2)nc(-c2ccccn2)n1	87.5 % of DMSO
NC(CO)C(=O)NNCc1ccc(O)c(O)c1O (stereo not drawn)	90.8 % of DMSO
O=C(CCCCCCCn1cc(-c2cccnc2)nn1)Nc1ccccc1-c1ccccc1	122 % of DMSO
COC(=O)C(Cc1ccc(OCCn2c(=O)sc3cc(C(=O)c4ccccc4)ccc32)cc1)C(=O)OC	130 % of DMSO
COc1ccc2nc3ccc(Cl)cc3c(SCCCN)c2c1	97.8 % of DMSO
CC(CN(C)C)C(C)(O)Cc1ccc(Cl)cc1 (stereo not drawn)	109 % of DMSO
CN(C)CCCO[C@@H]1[C@H]2OC(C)(C)O[C@H]2O[C@@H]1[C@H](O)CO	78.7 % of DMSO
CC(C)c1c(NC(=O)Nc2ccc(Cl)cc2)c(=O)n(-c2ccccc2)n1C	103 % of DMSO
CC(C)(C)NCC(O)COc1cccc2c1CCC(=O)N2 (stereo not drawn)	94.7 % of DMSO

For quick reference, copied from above (block 1):
target	test	remaining binding
Vascular endothelial growth factor receptor 1 (FLT1, Homo sapiens, UniProt P17948)	cell-free assay, competition with immobilised ligand	91.5%
RAF proto-oncogene serine/threonine-protein kinase (RAF1, Homo sapiens, UniProt P04049)	cell-free assay, competition with immobilised ligand	83.8%
Receptor-interacting serine/threonine-protein kinase 2 (RIPK2, Homo sapiens, UniProt O43353)	cell-free assay, competition with immobilised ligand	84.5%
Serine/threonine-protein kinase 33 (STK33, Homo sapiens, UniProt Q9BYT3)	cell-free assay, competition with immobilised ligand	100%
Serine/threonine-protein kinase ICK (CILK1, Homo sapiens, UniProt Q9UPZ9)	binding, competition with immobilised ligand	74.1%
Mitotic checkpoint serine/threonine-protein kinase BUB1 (BUB1, Homo sapiens, UniProt O43683)	cell-free assay, competition with immobilised ligand	99.8%
Mast/stem cell growth factor receptor Kit (KIT, Homo sapiens, UniProt P10721, V559D)	cell-free assay, competition with immobilised ligand	45.6%
Ephrin type-A receptor 3 (EPHA3, Homo sapiens, UniProt P29320)	cell-free assay, competition with immobilised ligand	89.8%
AP2-associated protein kinase 1 (AAK1, Homo sapiens, UniProt Q2M2I8)	binding	95.9%
Cyclin-dependent kinase 4, with cyclin D1 (CDK4, Homo sapiens, UniProt P11802)	cell-free assay, competition with immobilised ligand	89.4%
Casein kinase I isoform gamma-2 (CSNK1G2, Homo sapiens, UniProt P78368)	cell-free assay, competition with immobilised ligand	77.6%
